Published values gathered from unrelated publications.
Protocols differ between the studies behind these lines. Values joined by “and” are separate records of one study, mostly repeats; a detail may differ. ± gives the spread as reported.

| Compound | assay | system | conditions | plasma concentration |
| --- | --- | --- | --- | --- |
| O=C1CCC(N2Cc3cc(C(=O)O)c(F)cc3C2=O)C(=O)N1 (centres unmarked) |  | CD-1 mouse, male | oral, 10 mg/kg parent drug, 1 h | 221 ± 115 ng/mL |
| C=CC(=O)N1CCC[C@@H](c2ccc(C(N)=O)c3[nH]ccc23)C1 |  | mouse, TMD8 tumour-bearing, plasma | 7.5 mg/kg twice daily, 8 h | 4.39 ng/mL |
| Cc1nn(-c2nc3c(F)cc(F)cc3s2)c(O)c1C(c1ccc(C(F)(F)F)cc1)c1c(C)nn(-c2nc3c(F)cc(F)cc3s2)c1O |  | ICR mouse | intraperitoneal, 10 mg/kg, 2.00 h | 4550 ng/mL and 4370 ng/mL and 2560 ng/mL |
| Cc1ccc(OCC(=O)N(Cc2cccs2)c2ccn[nH]2)cc1 |  | mouse, CD-1, male, plasma | oral, 30 mg/kg, 0.25 h | 382 nM |
| CCC(=O)N(C)c1ccc(Cl)c(Cl)c1 | LC-MS/MS | mouse C57BL/6 female, plasma | oral, 10 mg/kg, 2 h | 26.2 ng/mL and 24.6 ng/mL |
| [2H]C([2H])(N)C([2H])([2H])NC(=O)c1cc(C2CC2)nc2c1cnn2C(C)C |  | mouse BALB/c female, plasma | intraperitoneal, 50 mg/kg, 2 h | 2360 ng/mL and 2100 ng/mL and 2280 ng/mL and 1980 ng/mL |
| Cc1cc(C(=O)N[C@@H](CC(=O)NC(C)(C)C)C(=O)NCCNC(=O)c2cccc(-c3cc[nH]n3)c2)no1 |  | mouse, plasma | oral, 1 mg/kg | < 2 ng/mL |
| Cc1ncsc1-c1ccc(CNC(=O)[C@@H]2C[C@@H](O)CN2C(=O)[C@@H](NC(=O)COCC(C)(COCCOCCOCCNC(=O)C[C@@H]2N=C(c3ccc(Cl)cc3)c3c(sc(C)c3C)-n3c(C)nnc32)COCCOCCOCCNC(=O)C[C@@H]2N=C(c3ccc(Cl)cc3)c3c(sc(C)c3C)-n3c(C)nnc32)C(C)(C)C)cc1 |  | C57BL/6 mouse, male, plasma | intravenous, 5 mg/kg, 5 min | 39400 ng/mL |
| C=CC(=O)N1CCCC(n2c(=O)c3ncccc3n(Cc3ccc(Oc4ccccc4)cc3)c2=O)C1 (centres unmarked) |  | male BALB/c mouse, plasma | oral, 200 mg/kg, 0.0833 h | 9520 ng/mL |
| CC#CC(=O)N1CCC[C@H]1c1nc(-c2ccc(C(=O)Nc3ccccn3)cc2)c2c(N)nccn12 |  | mouse, TMD8 tumour-bearing, plasma | 15 mg/kg twice daily, 8 h | 15.3 ng/mL |
| CC(C)n1ncc2c(C(=O)NC[C@@H](C)N)cc(C3CC3)nc21 |  | mouse BALB/c female, plasma | intraperitoneal, 30 mg/kg, 1 h | 1520 ng/mL and 1420 ng/mL and 1350 ng/mL and 1340 ng/mL |
| CC1(C)CC[C@@]2(CO)C(=C3C=C[C@@H]4[C@@]5(C)CC[C@H](O)[C@@](C)(CO)[C@@H]5CC[C@@]4(C)[C@]3(C)C[C@@H]2O)C1 | UHPLC-MS/MS | mouse, plasma | oral, 50 mg/kg of saikosaponin a, 2 h | 2.09 ng/mL |
| O=C1C2CC3CC1CC(C(=O)N1CCN(c4ccc([N+](=O)[O-])c5ncccc45)CC1)(C3)C2 |  | ICR mouse, male | oral, 5 mg/kg, 1 h | 12.6 ng/mL |
| O=S(=O)(N[C@H]1CCO[C@@H](C2c3ccc(F)cc3CCc3cc(F)ccc32)C1)c1ccc(OC(F)(F)F)cc1 |  | mouse | oral, 30 mg/kg, 2-8 h | ~4000 nM |
